Measured values from different studies.
Each line is one published result; not all experiments were run side by side. ± gives the spread as reported.

SMILES	cell line	test	system	setting	endpoint	value
Cc1cn(-c2cc(NC(=O)c3ccc(C)c(Nc4nccc(-c5cccnc5)n4)c3)cc(C(F)(F)F)c2)cn1	hiPSC-derived cardiomyocytes	–	–	72 h	concentration of contraction prolongation	≥ 3.7 µM
CCCCCCCCCCCCCCCCCCOC(=O)c1ccccc1-c1c2ccc(=[N+](CC)CC)cc-2oc2cc(N(CC)CC)ccc12.[Cl-]	HEK293-A	whole-cell patch clamp	–	–	membrane partition constant	39000 M⁻¹
CC/C(=C\c1ccc(OCC(=O)N[C@@H](Cc2ccccc2)C(=O)NCC(=O)OC)cc1)[N+](=O)[O-]	THP-1	MTT	RPMI-1640 with 10% FBS	72 h, pH 7.4	CC50	5.15 µM
CN1CCN2CCN(CC1)CCN(Cc1ccccc1)CC2	THP-1	cytotoxicity	–	–	IC90	> 20 µM
O=c1c(O)c(-c2ccc(-c3ccccc3)cc2)oc2cc(O)cc(O)c12	human infant foreskin fibroblasts	trypan blue exclusion	–	6 µM, 72 h, 10% FBS	viability	82.1 ± 5.48%
COC1C(O)[C@@H](COP(=O)(O)OP(=O)([S-])OP(=O)(O)OP(=O)(O)OC[C@H]2O[C@@H](n3cnc4c(=O)[nH]c(N)nc43)C(O)C2O)O[C@H]1n1c[n+](C)c2c(O)nc(N)nc21 (mixture of isomers)	human immature dendritic cells	translation, refers to: luciferase	–	–	time of maximal expression	10.5 ± 0.05 h
C=C(C[C@@H]1CCOc2ccccc21)c1cc(C)cc(C)c1	RAW264.7	cytotoxicity, CCK-8	–	24 h	IC50	110 µM
CCCC/C=C\CCCCCCCC(=O)OC	Caco-2	WST-1	–	50 and 500 µM, 24 h	cytotoxicity	not toxic
NCCC(=O)N[C@@H](Cc1cnc[nH]1)C(=O)O	SKPT	–	–	10 µM, 15 min, basolateral uptake, apical pH 6.0	pH of maximal uptake	6.5
C=C(C[C@@H]1CCSc2ccc(Br)cc21)c1ccccc1	RAW264.7	cytotoxicity, CCK-8	–	24 h	IC50	75.1 µM
O=C(c1ccccc1)c1ccc(-c2oc3cc(O)cc(O)c3c(=O)c2O)cc1	human infant foreskin fibroblasts	trypan blue exclusion	–	13 µM, 72 h, 10% FBS	viability	111 ± 3.2%
C=C(C[C@H](N)C(=O)O)C(=O)Nc1ccc(F)cc1	MCF-10A	necrosis	–	24 h	EC50	> 316 µM
CC/C(=C\c1ccc(OCC(=O)NC(Cc2ccccc2)C(=O)N2CCOCC2)cc1)[N+](=O)[O-] (centres unmarked)	THP-1	MTT	RPMI-1640 with 10% FBS	72 h, pH 7.4	CC50	28.7 µM
O=C(c1cc(Cc2n[nH]c(=O)c3ccccc23)ccc1F)N1CCN(C(=O)C2CC2)CC1	MDA-MB-231	necrosis	–	24 h	EC50	61.7 µM
O=C(c1ccccc1)c1cccc(-c2oc3cc(O)cc(O)c3c(=O)c2O)c1	human infant foreskin fibroblasts	trypan blue exclusion	–	12 µM, 72 h, 10% FBS	viability	90.4 ± 4.85%
C#C[C@]1(CO)O[C@@H](n2cnc3c(N)nc(F)nc32)C[C@@H]1O	MDCK-II monolayer	–	–	25 µM, together with: EDTA	Papp apical to basolateral	1.82 ± 0.73 ×10⁻⁶ cm/s

SMILES	cell line	test	system	setting	endpoint	value
C=C(C[C@@H]1CCSc2ccccc21)c1ccc(Cl)cc1	RAW264.7	cytotoxicity, CCK-8	–	24 h	IC50	190 µM
Cc1ccc(-c2cc(C(F)(F)F)nn2-c2ccc(S(N)(=O)=O)cc2)cc1	RAW264.7	MTT	–	20 µM, 24 h, 10% FBS, together with: LPS	viability	93 ± 1.44%
C=C(C[C@H](N)C(=O)O)C(=O)NCc1ccc([N+](=O)[O-])cc1	MDA-MB-231	necrosis	–	24 h	EC50	151 µM
O=C(O[C@@H]1Cc2c(O)cc(O)cc2O[C@@H]1c1cc(O)c(O)c(O)c1)c1cc(O)c(O)c(O)c1	Caco-2	–	–	concentration not given, 3 h	cellular accumulation	488 ± 33 pmol/well
O=C1CN(c2nc(=O)c3cc(C(F)(F)F)cc([N+](=O)[O-])c3s2)CCN1C1CCCC1	MDCK-MDR1	–	–	60 (unit not given), pH 7.4	Papp A to B	> 5.5 ×10⁻⁶ cm/s
O=c1c(O)c(-c2ccc(I)cc2)oc2cc(O)cc(O)c12	human infant foreskin fibroblasts	trypan blue exclusion	–	6 µM, 72 h, 10% FBS	viability	70.2 ± 2.7%
C=C(C[C@H](N)C(=O)O)C(=O)NC1CC1	MCF-10A	necrosis	–	24 h	EC50	> 316 µM
CCCN1CCN(S(=O)(=O)c2ccc(C(=O)Nc3nc(-c4cc(C)ccc4C)cs3)cc2)CC1	THP-1	cell growth or viability, MTT	–	5 µM, 18 h	viability	< 80%
C=C(C[C@H](N)C(=O)O)C(=O)NCc1ccccc1	MDA-MB-231	necrosis	–	24 h	EC50	> 316 µM
CCCCCCCCCCCCCCCC[N+](C)(C)C	HEK293-A	whole-cell patch clamp	–	–	membrane partition constant	55000 M⁻¹
C=C(C[C@H](N)C(=O)O)C(=O)N1CCCCC1	MCF-10A	necrosis	–	24 h	EC50	> 316 µM
C=C(C[C@@H]1CCOc2ccc(Cl)cc21)c1ccccc1	RAW264.7	cytotoxicity, CCK-8	–	24 h	IC50	166 µM
C=C(C[C@H](N)C(=O)O)C(=O)Nc1ccccc1	MCF-10A	necrosis	–	24 h	EC50	> 316 µM
CCCCCCCCCC[N+](C)(C)C	horse erythrocytes	haemolysis	–	–	CC50	39100 µM
C=C(C[C@H](N)C(=O)O)C(N)=O	MCF-10A	necrosis	–	24 h	EC50	> 316 µM
Cc1ccc(-c2oc3cc(O)cc(O)c3c(=O)c2O)cc1	human infant foreskin fibroblasts	trypan blue exclusion	–	12 µM, 72 h, 10% FBS	viability	65 ± 4.12%

Repeated from above:
SMILES	cell line	test	system	setting	endpoint	value
C=C(C[C@H](N)C(=O)O)C(=O)Nc1ccccc1	MCF-10A	necrosis	–	24 h	EC50	> 316 µM
C=C(C[C@H](N)C(=O)O)C(=O)N1CCCCC1	MCF-10A	necrosis	–	24 h	EC50	> 316 µM
C=C(C[C@H](N)C(=O)O)C(=O)NCc1ccc([N+](=O)[O-])cc1	MDA-MB-231	necrosis	–	24 h	EC50	151 µM
O=c1c(O)c(-c2ccc(-c3ccccc3)cc2)oc2cc(O)cc(O)c12	human infant foreskin fibroblasts	trypan blue exclusion	–	6 µM, 72 h, 10% FBS	viability	82.1 ± 5.48%
CCCCCCCCCCCCCCCCCCOC(=O)c1ccccc1-c1c2ccc(=[N+](CC)CC)cc-2oc2cc(N(CC)CC)ccc12.[Cl-]	HEK293-A	whole-cell patch clamp	–	–	membrane partition constant	39000 M⁻¹
